Measurements of several laboratories.
Compare with care: the assays were run in different laboratories.
Technique: steady-state kinetics
B1: UGP (Trypanosoma brucei, UniProt D3HTY9); chain MPLNPPSAFSGAALACLEKMQASGVEEKCIHIFLIQHALVRKGETGYIPEKSISPVESLPFLQGIETKGENTALLRQAVVLKLNGGLGTGMGLNGPKSLLQVKNGQTFLDFTALQLEHFRQVRNCNVPFMLMNSFSTSGETKNFLRKYPTLYEVFDSDIELMQNRVPKIRQDNFFPVTYEADPTCEWVPPGHGDVYTVLYSSGKLDYLLGKGYRYMFISNGDNLGATLDVRLLDYMHEKQLGFLMEVCRRTESDKKGGHLAYKDVIDETTGQTRRRFVLRESAQCPKEDEDSFQNIAKHCFFNTNNIWINLMELKKMMDEQLGVLRLPVMRNPKTVNPQDSQSTKVYQLEVAMGAAISLFDRSEAVVVPRERFAPVKTCSDLLALRSDAYQVTEDQRLVLCEERNGKPPAIDLDGEHYKMIDGFEKLVKGGVPSLRQCTSLTVRGLVEFGADVSVRGNVVIKNLKEEPLIIGSGRVLDNEVVVVE
B2: putA G1011P (Rhodobacter capsulatus, UniProt D5AN87); chain MTDLSALGPKAKFAPEAEVLQALVAQAALPQPQLDRIAARGADLVARIRAEAKPSLMEHFLAQYGLSTREGVALMCLAEAMLRVPDTATIDALIEDKIAPSDWGKHLGTAASSLVNASTWALMLTGKVLDDGAGGIAGTLRGAMRRLGEPVIRAAVGQAMREMGRQFVLGETIEKALERAEKREAEGYTFSYDMLGEAALTAADAERYRLAYAQAITAIGKAATRGSIAANPGISIKLSALHPRYEVAQEARVMAELVPVVRDLARAAARAGIALHIDAEEQDRLALSLRVMAAVIADPETAGWEGFGAVVQAYGKRAGAAIDALAAMARAAGRRINIRLVKGAYWDAEMKRAQVEGHPGFPLFTSKTGTDVAYICLAAKLFGLNDCIYPQFATHNAHTVAAVLEMAAGRPFEFQRLHGMGARLHDIVLRETGGRCRIYAPVGAHRDLLAYLVRRLLENGANSSFVNQIVNESVPPAEVAACPFAALPTARAPRGLLAPADLFGAGRVNAQGFDLSDPEVLARIEAARDVTLPDAAPIVAGPVSGTLRPVRNPATGAVVAQVTEADAATVALALDAAQVWSAPAATRAAVLCRAADLYEENFGPIFAALAQEAGKTLGDAVSELREAVDFLRYYAAEGAADTRPPRGAVVAISPWNFPLAIFTGQVAAALMAGNAVLAKPAEQTPIIAALAVRLLHQAGVPETALQLLPGDGPTVGAALTRDPRVAGVVFTGSTETAQIIARAMAAHLAPGTPLIAETGGLNAMVVDSTALPEQAVRDVVASAFRSAGQRCSALRCLYVQDDIAPHLIGMLKGAMEELVSGDPARLSTDVGPVIDAEAKAGIETYLAANKARILHRSTAPEGGHFVAPALLQVGGIADLEREIFGPVLHLATFAAEDLPAVIAAINARGYGLTFGLHSRIDARVETVAETIRAGNIYVNRNQIGAVVGSQPFGGEGLSGTGPKAGGPLYLNRFYAPEPVVAVGGWTEAATPILPEARETQLDEIFLPGPTPELNRLTRHQRGPILCLGPGAEAASAQAAAVVALGGQAVQASGAVSPKALETLTPLAGVLWWGAAEMGRAYAQALAVRPGPLVPLITAKPDLAHVAHERHLCVDTTAAGGNAALLAG
B3: focA F75A (Escherichia coli, UniProt P0AC23); chain MKADNPFDLLLPAAMAKVAEEAGVYKATKHPLKTFYLAITAGVFISIAFVFYITATTGTGTMPFGMAKLVGGICASLGLILCVVCGADLFTSTVLIVVAKASGRITWGQLAKNWLNVYFGNLVGALLFVLLMWLSGEYMTANGQWGLNVLQTADHKVHHTFIEAVCLGILANLMVCLAVWMSYSGRSLMDKAFIMVLPVAMFVASGFEHSIANMFMIPMGIVIRDFASPEFWTAVGSAPENFSHLTVMNFITDNLIPVTIGNIIGGGLLVGLTYWVIYLRENDHH
B4: enzyme S146A (Schizosaccharomyces pombe, UniProt Q9Y7P0); chain MFTGLVEAIGVVKDVQGTIDNGFAMKIEAPQILDDCHTGDSIAVNGTCLTVTDFDRYHFTVGIAPESLRLTNLGQCKAGDPVNLERAVLSSTRMGGHFVQGHVDTVAEIVEKKQDGEAIDFTFRPRDPFVLKYIVYKGYIALDGTALTITHVDDSTFSIMMISYTQSKVIMAKKNVGDLVNVEVDQIGKYTEKLVEAHIADWIKKTQA
B5: enzyme (Thermobifida fusca, UniProt Q47RA9); chain MIMIMASKSSPHDLPDVSGLSIAVLGGTGDQGRGLARRFAMAGHEVILGSRSAERAQAVAAELGEGLPVRGMDNAGAAEAGDVVIVAVPWDGHRALLESLKDVLAGKIVVDCVNPLGFDKRGAYALPVEEGSAAEQAAAILPDSRVVAAFHHVSAVLLLDPEVEKVDLDVLVLGDDREATDVVRALAARIPGVRGVYGGRLRNAHQVEAFTANLISINRRYKAHAGIRITDI
B6: protein (Streptomyces sp. NRRL 30471, UniProt F2WUC8); chain MVRADYRTPEVNDVVRYRYGAAETALLKNRISEFGFTMAEVPGECAPQTEIERLGKALGLGEPYVAALYQRGDTRAHGALYTDVRSRAHNTHPGFGTTEGQTIHVDGLLEPIGTIRTTILFCVRPAVSGGRTVLFNSSAAFETLRHSDPAAAESLRDPGVLRRRSTLPNVDAGHTGPAFAYDNGLLITRYSEGPTVEWNAPPGRSAELERALNFLRAAAEDKRYSIALRLGAGEALIFRNDVISHGREAYRDDPAAPRHLIRTLYLESP
B7: enzyme (Streptomyces purpurascens, UniProt Q54527); chain MSSSSPGEPLEPTDQDLDVLLKNLGNLVTPMALRVAATLRLVDHLLAGADTLAGLADRTDTHPQALSRLVRHLTVVGVLEGGEKQGRPLRPTRLGMLLADGHPAQQRAWLDLNGAVSHADLAFTGLLDVVRTGRPAYAGRYGRPFWEDLSADVALADSFDALMSCDEDLAYEAPADAYDWSAVRHVLDVGGGNGGMLAAIALRAPHLRGTLVELAGPAERARRRFADAGLADRVTVAEGDFFKPLPVTADVVLLSFVLLNWSDEDALTILRGCVRALEPGGRLLVLDRADVEGDGADRFFSTLLDLRMLTFMGGRVRTRDEVVDLAGSAGLALASERTSGSTTLPFDFSILEFTAVSEEAAPAAQASEALPAQE
B8: speck Y220A (Drosophila melanogaster, UniProt Q94521); chain MEDALTVSGKPAACPVDQDCPYTIELIQPEDGEAVIAMLKTFFFKDEPLNTFLDLGECKELEKYSLKPLPDNCSYKAVNKKGEIIGVFLNGLMRRPSPDDVPEKAADSCEHPKFKKILSLMDHVEEQFNIFDVYPDEELILDGKILSVDTNYRGLGIAGRLTERAYEYMRENGINVYHVLCSSHASARVMEKLGFHEVFRMQFADYKPQGEVVFKPAAPHVGIQVMAKEVGPAKAAQTKL
UniProt Q6PHW0, sequence (whole entry, looked up): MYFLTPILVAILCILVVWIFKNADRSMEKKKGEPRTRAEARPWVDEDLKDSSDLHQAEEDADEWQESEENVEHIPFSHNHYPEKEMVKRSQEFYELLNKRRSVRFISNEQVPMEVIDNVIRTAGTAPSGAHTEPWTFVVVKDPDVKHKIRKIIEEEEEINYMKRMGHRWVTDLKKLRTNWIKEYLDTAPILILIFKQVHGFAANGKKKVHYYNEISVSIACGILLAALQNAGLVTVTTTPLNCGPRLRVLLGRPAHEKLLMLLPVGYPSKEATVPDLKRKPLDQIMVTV
UniProt O60656, sequence (whole entry, looked up): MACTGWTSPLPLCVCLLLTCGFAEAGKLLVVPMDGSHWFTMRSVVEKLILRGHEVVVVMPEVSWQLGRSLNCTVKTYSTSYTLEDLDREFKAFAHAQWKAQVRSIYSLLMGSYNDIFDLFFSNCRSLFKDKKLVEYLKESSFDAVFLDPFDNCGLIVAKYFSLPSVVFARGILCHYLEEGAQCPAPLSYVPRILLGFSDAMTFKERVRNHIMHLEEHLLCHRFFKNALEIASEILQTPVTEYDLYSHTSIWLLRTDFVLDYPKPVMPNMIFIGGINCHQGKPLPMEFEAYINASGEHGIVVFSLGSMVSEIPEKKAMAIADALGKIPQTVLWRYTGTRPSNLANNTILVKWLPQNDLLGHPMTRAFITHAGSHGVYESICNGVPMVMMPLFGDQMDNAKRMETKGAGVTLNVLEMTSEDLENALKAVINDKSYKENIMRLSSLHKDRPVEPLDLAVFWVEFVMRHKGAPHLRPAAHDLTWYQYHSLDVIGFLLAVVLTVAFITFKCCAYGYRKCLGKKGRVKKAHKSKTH

For `B1 (UGP)`, the Km was 53 µM (O=c1ccn([C@@H]2O[C@H](COP(=O)(O)OP(=O)(O)OP(=O)(O)O)[C@@H](O)[C@H]2O)c(=O)[nH]1; pH 7.2, apparent).
With `B2 (putA G1011P)` the Km was 10100 µM (O=C(O)[C@@H]1CCCN1; pH 8, 23 °C).
The Km of `B3 (focA F75A)` is reported as 100000 µM (O=CO; pH 6.8, 19 °C, apparent, not purified).
`B4 (enzyme S146A)` gave a Km of 3.8 µM (Cc1nc2c(=O)[nH]c(=O)nc-2n(C[C@H](O)[C@H](O)[C@H](O)CO)c1C; pH 7.2, 37 °C, apparent).
For `enzyme (Neurospora crassa, UniProt Q7SCU7)`, the Km was 84.8 µM (Nc1ncnc2c1ncn2[C@@H]1O[C@H](COP(=O)(O)OP(=O)(O)OP(=O)(O)O)[C@@H](O)[C@H]1O; pH 7.5, 37 °C).
`B5 (enzyme)` has a Km of 25000 µM (NC(=O)c1ccc[n+](CCCO)c1; pH 8, 25 °C).
The Km of `protein (Shewanella denitrificans, UniProt Q12KT8)` is reported as 45 µM (Cc1cn([C@H]2C[C@H](O)[C@@H](COP(=O)(O)OP(=O)(O)O[C@H]3O[C@H](C)C(=O)[C@H](O)[C@H]3O)O2)c(=O)[nH]c1=O; pH 7.5, added: NADPH 0.2 mM).
The Km of `IYD (Homo sapiens, UniProt Q6PHW0)` is reported as 36 µM (N[C@@H](Cc1cc(F)c(O)c(I)c1)C(=O)O; pH 7.4, 25 °C, added: sodium dithionite 0.5%).
For `UGT1A9 (Homo sapiens, UniProt O60656)`, the Km was 1.27 µM (COc1c(O)cc(O)c2c(=O)cc(-c3ccccc3)oc12; pH 7.4, 37 °C).
`B6 (protein)` has a Km of 6.3 µM (O=c1ccn([C@H]2C[C@H](O)[C@@H](COP(=O)(O)O)O2)c(=O)[nH]1; pH 7.5, 30 °C, added: αKG 2 mM, ascorbic acid 2 mM, FeCl2 0.4 mM).
`B7 (enzyme)` gave a Km of 12 µM (CC[C@@]1(O)C[C@H](O[C@H]2C[C@H](N)[C@H](O)[C@H](C)O2)c2c(O)c3c(c(O)c2[C@H]1C(=O)O)C(=O)c1cccc(O)c1C3=O; pH 7.5, 30 °C).
For `B8 (speck Y220A)`, the Km was 400 µM (CC(=O)SCCNC(=O)CCNC(=O)[C@H](O)C(C)(C)COP(=O)(O)OP(=O)(O)OC[C@H]1O[C@@H](n2cnc3c(N)ncnc32)[C@H](O)[C@@H]1OP(=O)(O)O; pH 7.2, 30 °C).

For quick reference, copied from above:
`B5 (enzyme)` has a Km of 25000 µM (NC(=O)c1ccc[n+](CCCO)c1; pH 8, 25 °C).
